Measured values collected from several papers.
Every numbered part comes from another study and shows a few of its results, in no order.
UniProt Q86YV6, sequence (whole entry, looked up): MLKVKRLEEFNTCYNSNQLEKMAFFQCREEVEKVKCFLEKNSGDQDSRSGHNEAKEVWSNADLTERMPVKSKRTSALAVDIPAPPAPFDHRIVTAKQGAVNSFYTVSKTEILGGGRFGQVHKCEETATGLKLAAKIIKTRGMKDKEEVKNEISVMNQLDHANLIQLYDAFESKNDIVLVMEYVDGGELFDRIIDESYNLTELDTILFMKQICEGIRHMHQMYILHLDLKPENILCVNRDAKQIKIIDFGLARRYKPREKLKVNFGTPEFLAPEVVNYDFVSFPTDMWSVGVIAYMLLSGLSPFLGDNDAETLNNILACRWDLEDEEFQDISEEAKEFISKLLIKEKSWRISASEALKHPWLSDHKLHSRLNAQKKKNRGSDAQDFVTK
UniProt P48730, sequence (whole entry, looked up): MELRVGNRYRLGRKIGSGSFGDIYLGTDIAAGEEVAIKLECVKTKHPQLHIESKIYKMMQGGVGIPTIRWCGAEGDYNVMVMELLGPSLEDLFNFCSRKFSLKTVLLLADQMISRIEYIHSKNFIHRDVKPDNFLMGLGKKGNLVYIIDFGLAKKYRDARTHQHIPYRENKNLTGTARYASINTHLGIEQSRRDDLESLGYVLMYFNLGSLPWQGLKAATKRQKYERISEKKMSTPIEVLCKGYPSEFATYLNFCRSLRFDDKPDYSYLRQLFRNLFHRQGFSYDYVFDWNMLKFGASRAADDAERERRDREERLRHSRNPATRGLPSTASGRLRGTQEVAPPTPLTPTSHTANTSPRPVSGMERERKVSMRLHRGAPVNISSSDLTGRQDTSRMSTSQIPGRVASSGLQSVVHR
UniProt Q86UX6, sequence (whole entry, looked up): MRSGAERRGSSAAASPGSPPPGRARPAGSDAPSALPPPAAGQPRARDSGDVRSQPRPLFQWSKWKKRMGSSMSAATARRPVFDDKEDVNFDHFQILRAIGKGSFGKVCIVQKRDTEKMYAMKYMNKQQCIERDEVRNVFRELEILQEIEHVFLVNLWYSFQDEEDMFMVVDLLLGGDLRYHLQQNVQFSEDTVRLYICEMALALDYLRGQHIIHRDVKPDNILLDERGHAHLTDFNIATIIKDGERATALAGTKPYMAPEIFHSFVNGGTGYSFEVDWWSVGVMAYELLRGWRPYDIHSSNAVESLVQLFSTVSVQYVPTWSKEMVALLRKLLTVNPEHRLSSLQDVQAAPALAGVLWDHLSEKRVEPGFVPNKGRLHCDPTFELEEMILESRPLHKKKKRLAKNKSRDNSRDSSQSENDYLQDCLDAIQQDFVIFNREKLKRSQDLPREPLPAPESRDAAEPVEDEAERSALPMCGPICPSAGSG
UniProt P42336, sequence (whole entry, unmodified, looked up): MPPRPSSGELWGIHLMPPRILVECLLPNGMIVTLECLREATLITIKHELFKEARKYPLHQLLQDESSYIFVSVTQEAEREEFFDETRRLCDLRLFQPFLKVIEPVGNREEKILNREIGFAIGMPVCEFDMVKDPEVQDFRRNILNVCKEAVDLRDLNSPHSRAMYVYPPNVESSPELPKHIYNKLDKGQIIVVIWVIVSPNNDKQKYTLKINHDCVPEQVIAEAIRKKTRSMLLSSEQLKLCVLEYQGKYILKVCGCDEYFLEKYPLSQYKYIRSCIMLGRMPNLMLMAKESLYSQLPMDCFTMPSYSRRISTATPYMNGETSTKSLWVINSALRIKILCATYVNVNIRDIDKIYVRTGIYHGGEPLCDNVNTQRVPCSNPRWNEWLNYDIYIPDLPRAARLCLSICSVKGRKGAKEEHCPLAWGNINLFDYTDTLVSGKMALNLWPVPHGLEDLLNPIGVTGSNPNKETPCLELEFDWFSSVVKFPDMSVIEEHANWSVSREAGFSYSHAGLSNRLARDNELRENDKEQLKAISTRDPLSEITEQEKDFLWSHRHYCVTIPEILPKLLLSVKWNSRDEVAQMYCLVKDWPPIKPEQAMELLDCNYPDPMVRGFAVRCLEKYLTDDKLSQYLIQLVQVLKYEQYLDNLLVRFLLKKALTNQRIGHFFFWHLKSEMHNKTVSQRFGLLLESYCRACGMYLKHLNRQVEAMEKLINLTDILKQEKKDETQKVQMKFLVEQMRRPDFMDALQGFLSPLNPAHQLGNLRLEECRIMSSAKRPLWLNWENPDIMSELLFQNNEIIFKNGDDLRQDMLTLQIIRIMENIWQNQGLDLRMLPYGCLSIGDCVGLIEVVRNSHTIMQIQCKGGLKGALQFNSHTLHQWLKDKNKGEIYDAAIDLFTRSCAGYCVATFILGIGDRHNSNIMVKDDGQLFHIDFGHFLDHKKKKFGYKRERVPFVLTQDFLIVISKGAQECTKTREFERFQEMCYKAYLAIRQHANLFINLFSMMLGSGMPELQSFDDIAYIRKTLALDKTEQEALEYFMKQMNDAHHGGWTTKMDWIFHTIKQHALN
UniProt Q96L34, sequence (whole entry, looked up): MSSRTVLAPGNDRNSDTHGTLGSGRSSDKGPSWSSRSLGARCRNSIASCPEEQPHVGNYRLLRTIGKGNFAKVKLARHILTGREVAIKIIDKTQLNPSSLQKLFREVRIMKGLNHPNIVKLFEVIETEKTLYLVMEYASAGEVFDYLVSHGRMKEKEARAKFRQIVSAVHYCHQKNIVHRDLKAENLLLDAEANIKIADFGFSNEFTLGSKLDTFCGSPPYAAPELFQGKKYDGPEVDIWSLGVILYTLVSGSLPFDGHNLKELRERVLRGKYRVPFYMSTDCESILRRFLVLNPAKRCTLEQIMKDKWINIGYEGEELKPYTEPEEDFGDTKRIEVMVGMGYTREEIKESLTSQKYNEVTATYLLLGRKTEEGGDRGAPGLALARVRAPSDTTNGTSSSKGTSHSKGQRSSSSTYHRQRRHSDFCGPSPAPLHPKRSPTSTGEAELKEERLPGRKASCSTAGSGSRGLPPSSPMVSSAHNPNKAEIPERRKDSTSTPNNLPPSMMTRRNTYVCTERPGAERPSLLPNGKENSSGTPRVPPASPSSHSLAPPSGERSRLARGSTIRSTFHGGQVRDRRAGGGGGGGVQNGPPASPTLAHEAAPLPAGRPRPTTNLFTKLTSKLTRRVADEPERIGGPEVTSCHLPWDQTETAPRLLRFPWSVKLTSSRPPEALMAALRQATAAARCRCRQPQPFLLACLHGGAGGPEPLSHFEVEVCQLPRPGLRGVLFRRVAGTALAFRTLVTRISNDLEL
UniProt P36896, sequence (whole entry, looked up): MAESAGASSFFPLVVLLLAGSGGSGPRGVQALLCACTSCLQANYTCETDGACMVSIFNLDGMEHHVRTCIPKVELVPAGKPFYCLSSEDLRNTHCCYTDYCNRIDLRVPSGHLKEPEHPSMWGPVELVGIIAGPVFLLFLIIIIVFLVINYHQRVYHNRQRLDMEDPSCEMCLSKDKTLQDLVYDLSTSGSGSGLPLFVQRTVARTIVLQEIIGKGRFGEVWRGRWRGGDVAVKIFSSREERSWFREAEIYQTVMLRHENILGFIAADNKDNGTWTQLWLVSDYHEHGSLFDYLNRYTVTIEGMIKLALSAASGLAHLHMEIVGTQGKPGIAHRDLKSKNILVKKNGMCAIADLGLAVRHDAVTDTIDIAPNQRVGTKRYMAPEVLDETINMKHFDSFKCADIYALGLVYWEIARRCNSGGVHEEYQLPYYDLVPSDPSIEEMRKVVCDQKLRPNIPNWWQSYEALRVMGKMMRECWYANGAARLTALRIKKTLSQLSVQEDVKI
UniProt Q2M2I8, sequence (whole entry, looked up): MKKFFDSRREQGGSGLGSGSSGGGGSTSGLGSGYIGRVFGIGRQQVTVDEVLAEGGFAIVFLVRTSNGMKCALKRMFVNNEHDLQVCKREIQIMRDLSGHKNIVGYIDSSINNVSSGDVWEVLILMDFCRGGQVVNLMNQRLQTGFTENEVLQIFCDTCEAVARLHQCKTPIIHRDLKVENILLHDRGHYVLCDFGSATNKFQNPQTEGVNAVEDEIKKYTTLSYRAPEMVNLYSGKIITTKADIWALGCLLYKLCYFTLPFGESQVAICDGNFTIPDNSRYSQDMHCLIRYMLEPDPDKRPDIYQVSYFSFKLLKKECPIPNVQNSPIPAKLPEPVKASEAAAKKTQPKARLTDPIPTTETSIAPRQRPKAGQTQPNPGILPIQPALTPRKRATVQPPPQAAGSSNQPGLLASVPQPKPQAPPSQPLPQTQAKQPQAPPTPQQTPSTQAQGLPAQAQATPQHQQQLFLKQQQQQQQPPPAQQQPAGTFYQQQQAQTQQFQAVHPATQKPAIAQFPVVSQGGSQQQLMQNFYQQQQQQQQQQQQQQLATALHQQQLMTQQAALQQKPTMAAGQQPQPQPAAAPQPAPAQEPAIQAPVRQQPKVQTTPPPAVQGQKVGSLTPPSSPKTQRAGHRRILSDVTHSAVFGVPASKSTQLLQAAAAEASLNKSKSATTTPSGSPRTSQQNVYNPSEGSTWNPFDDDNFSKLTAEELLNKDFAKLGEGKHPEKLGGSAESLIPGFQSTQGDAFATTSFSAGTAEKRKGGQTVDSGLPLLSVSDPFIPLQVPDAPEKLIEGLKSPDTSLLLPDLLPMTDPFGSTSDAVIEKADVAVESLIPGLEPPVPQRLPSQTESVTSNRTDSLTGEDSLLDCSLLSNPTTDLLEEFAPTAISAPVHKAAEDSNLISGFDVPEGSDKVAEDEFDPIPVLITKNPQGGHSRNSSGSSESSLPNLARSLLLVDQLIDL
UniProt Q00532, sequence (whole entry, looked up): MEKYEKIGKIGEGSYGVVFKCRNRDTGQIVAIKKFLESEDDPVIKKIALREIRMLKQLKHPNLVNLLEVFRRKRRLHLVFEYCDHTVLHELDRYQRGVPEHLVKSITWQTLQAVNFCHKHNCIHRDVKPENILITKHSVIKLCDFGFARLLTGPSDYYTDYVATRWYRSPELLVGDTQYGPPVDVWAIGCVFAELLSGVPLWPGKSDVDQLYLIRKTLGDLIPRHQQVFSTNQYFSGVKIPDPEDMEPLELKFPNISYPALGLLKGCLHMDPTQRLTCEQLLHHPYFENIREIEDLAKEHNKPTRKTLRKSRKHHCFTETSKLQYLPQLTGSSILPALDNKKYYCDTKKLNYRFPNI

Block 1
Organism: Sarcocystis neurona
Read-out: parasite activity
Tested at: 10 µM
Time: 96 h
SMILES | activity class
O=C1CC2(CCCC2)CC(=O)N1CCCCN1CCN(c2ncccn2)CC1 | inactive
CCCCCCNC(=O)n1cc(F)c(=O)[nH]c1=O | active
CCCc1nc(C(C)(C)O)c(C(=O)OCc2oc(=O)oc2C)n1Cc1ccc(-c2ccccc2-c2nnn[nH]2)cc1 | inactive
Nc1nc(N)nc(-c2cc(Cl)ccc2Cl)n1 | inactive
CC(=O)O[C@]1(C(C)=O)CC[C@H]2[C@@H]3C=C(C)C4=CC(=O)CC[C@]4(C)[C@H]3CC[C@@]21C | inactive
COc1cc2c(cc1OC)C(=O)C(CC1CCN(Cc3ccccc3)CC1)C2 (centres unmarked) | inactive
Cc1ccc(C)c(OCCCC(C)(C)C(=O)O)c1 | inactive

Block 2
SMILES: Cn1nc(C(F)(F)F)cc1-c1cnc(N2CCc3cc(S(=O)(=O)Nc4c(F)cc(Cl)cc4F)cc(N4CCCC4=O)c32)nc1
Tested at: 1 µM
target | assay | remaining binding [%]
MARK4 (Homo sapiens, UniProt Q96L34) | cell-free assay, competition with immobilised ligand | 88
ACVR1B (Homo sapiens, UniProt P36896) | cell-free assay, competition with immobilised ligand | 96
PIK3CA (Homo sapiens, UniProt P42336, E542K) | cell-free assay, competition with immobilised ligand | 85
MYLK4 (Homo sapiens, UniProt Q86YV6) | cell-free assay, competition with immobilised ligand | 99
EGFR (Homo sapiens, UniProt P00533, T790M) | cell-free assay, competition with immobilised ligand | 94
STK32C (Homo sapiens, UniProt Q86UX6) | cell-free assay, competition with immobilised ligand | 100
AAK1 (Homo sapiens, UniProt Q2M2I8) | binding | 100
CDKL1 (Homo sapiens, UniProt Q00532) | binding, competition with immobilised ligand | 77
CDC42BPB (Homo sapiens, UniProt Q9Y5S2) | cell-free assay, competition with immobilised ligand | 94
CSNK1D (Homo sapiens, UniProt P48730) | cell-free assay, competition with immobilised ligand | 94
WEE1 (Homo sapiens, UniProt P30291) | cell-free assay, competition with immobilised ligand | 88
MET (Homo sapiens, UniProt P08581, M1250T) | cell-free assay, competition with immobilised ligand | 94

Block 3
Species: human
Sample: microsomes or S9
Tested at: 2 µM
Time: 0.5 h
SMILES | remaining compound
CC(=O)c1ccc(Nc2nc3ccc(C)cc3n3cnnc23)cc1 | 70.5%
COCCN(C)C(=O)Cn1c(-c2ccccc2)nn(-c2cccc(C)c2)c1=O | 54.4%
Cc1cc(N2CCCCC2)nc(N2CCN(S(=O)(=O)c3ccc4cccc5c4c3CC5)CC2)n1 | 3.16%
CC(C)n1c(N2CCCN(C(=O)c3cc4cc(Cl)ccc4[nH]3)CC2)cc(=O)n(C(C)C)c1=O | 19%
Cn1c(C(=O)Nc2cnn(C(C)(C)C(=O)O)c2)cccc1=O | > 100%

Block 4
Cell line: A-375
Tested at: 100 µM
Time: 18 h
SMILES | viability [%]
O=C(CCCN1CC=C(n2c(=O)[nH]c3ccccc32)CC1)c1ccc(F)cc1 | 57.1
O=[N+]([O-])c1ccc(O)c2ncccc12 | 47.4
C[C@@H]1CN(c2c(F)c(N)c3c(=O)c(C(=O)O)cn(C4CC4)c3c2F)C[C@H](C)N1 | 86.2
Cc1ncc(CSSCc2cnc(C)c(O)c2CO)c(CO)c1O | 89.8
OCc1ccccc1 | 91.1
CC(C)C[C@H](NC(=O)[C@@H](O)[C@H](N)Cc1ccccc1)C(=O)O | 93
CCN1CCC[C@H]1CNC(=O)c1cc(S(N)(=O)=O)ccc1OC | 105
Nc1nc(O)c2ncn(COC(CO)CO)c2n1 | 98.1

For quick reference, copied from above (block 2):
target | assay | remaining binding [%]
STK32C (Homo sapiens, UniProt Q86UX6) | cell-free assay, competition with immobilised ligand | 100
AAK1 (Homo sapiens, UniProt Q2M2I8) | binding | 100
CDKL1 (Homo sapiens, UniProt Q00532) | binding, competition with immobilised ligand | 77
CDC42BPB (Homo sapiens, UniProt Q9Y5S2) | cell-free assay, competition with immobilised ligand | 94
